# Assay results pooled from the literature.
# Numbered parts are unrelated; each lists some results of a single study. Changes are numbered by the printed parent chain.

# Study 1 — method: RNA Bind-n-Seq; form: RNA; medium: in vitro; tested at: 365 nM; baseline: no-protein control; direction: higher = stronger binding
# Target: RNA binding protein fox-1 homolog 2, RRM domain, GST-SBP tag (RBFOX2, Homo sapiens, UniProt O43251-10, residues 100-194)
# Setting: natural RNA segment, single round, ends assumed
# Constant ends, left off below: GGGAGUUCUACAGUCCGACGAUC … UGGAAUUCUCGGGUGCCAA
# Target sequence (chain): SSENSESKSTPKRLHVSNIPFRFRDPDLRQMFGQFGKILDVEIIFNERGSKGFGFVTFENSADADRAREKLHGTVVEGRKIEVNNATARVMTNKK
Strand,RBNS enrichment (R)
UGCUUCCUUACCUGUCAAUAACAAUGGUGGCCACCUGGGUCCCAGCACUUGGCUGGUGGAGAGAUUUUUUUCAUUAUGGAGCUAAUAAAGGGUCCCUACGUUUUACAUUG,0.245
UAGUAUUGUAGUCUUCAUAGAAAUCAUUUCUAGUUACAGAAAAAUUUAACUCCAGAAUAUGGUGAUACAGUUUAUGUUAAGAAACAUAUUUUAAUUUAUUAUGCCAUGAA,1.6
AAUCUGUAUGCAUAAAGAAUGCACCACUCAACUUUUUUAUUCAUAAGCUAAUAUUUUUUUAAAGUUACAUUAAGAUUUUUUCUCUUUUGCAGCUACAUUUGAAAGUGAUA,0.88
GGUCCCCAGCUUGCCCUGAGCAGCCCUUCAGGGCUUCUGGUUCCUUCUGCCGCCCUUCCUGAGACCUUAGAAACCAGAAGAGCCAUACAGUCAGUGGAAGGCGGGGGGGC,0.4
CAUGGCAAGCAGGGUGGCCUUGGACUUUGAUUUAGGGGAUCGUGCUUUGGCCUGGAAAAUAAGCACUGGCCUGCAUGCCUAGAACCUGAGUGAAGGCAGUCAACAUCCUA,1.7
GAAGUUUUAAUUGUUCUGACUAAACUUAGGAGUUGAGCUAGGAGUGCGUUCAUGGUUUCUUCACUAACAGAGGAAUUAUGCUUUGCACUACGUCCCUCCAAGUGAAGACA,0.322
GAGUUUAGCAACCUUCCAGUUACCUGCAGAGUUCUGGGUGCACAGCCACCCCUCAUAAGAGCCCUGUUCUCUGAAGACCAUUCAUAUGAGAACAAAGGUCUAGGAUACUG,0.234
AGAUGGGGCUUCCCUUAGGAGCCAUAUUCAACUACAGCCUUCUAAAACCUGUGCCCUCAGCCACUUCGAAUGCCAGCCACCUUCUGGUUCUAAAACGGGGAGUGGUCUGA,0.361
GCCAAUACACCCUACCUUGGACCUGUAUGAAACAAGGCUACCGACAUGUAUCCUUGCUCUCCAGAGAUGGCACUAGCCUCAAUCCAGCUUCCAUCUUUGUAUACACCUGC,0.286
AAGAAGUUGUGGCCCUGGCCAUGUCAUCGUGUUCCUGUGUCCCCUGCAUGUACCCCACCCUCCACCCCUUCCUUUUGCGCGGACCCCAUUACAAUAAAUUUUAAAUAAAA,2.54
UUUCUUCUCUCCAGUGGCACUUGUUGGCAACUAGAUACAGGUUUCUAACCGGUUCACGGUUCACCCCCUAUAUGUAAUUAUAGGAAUUGUAUGUGGAAAUGGAUUAACAU,0.304
UCUUGAGCUGGUCUCCUGCCUCCACCCCCUGAGUGCUGGGGUUACAGGUGAUAGCUGGUCUCCUGCCUCCACCUCCUGAGUGCUGGGGUUACAGGUGAUCGCUGGUCUCC,0.253

# Study 2 — method: protein binding microarray; form: double-stranded DNA, one strand shown; medium: in vitro; tested at: not given; baseline: not given; direction: higher = stronger binding
# Target: Histone acetyltransferase KAT6A, winged helix 2, GST fusion (KAT6A, Homo sapiens, UniProt Q92794, residues 85-181)
# Setting: 8-mer, flanks averaged, mean of 2 arrays, mostly near background
# Construct (chain): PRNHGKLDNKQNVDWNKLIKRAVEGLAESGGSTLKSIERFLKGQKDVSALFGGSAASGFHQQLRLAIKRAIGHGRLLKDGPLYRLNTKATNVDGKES
Strand,E-score
ATGAACTG,0.0241
TCACTAGA,-0.0974
AAGCCGCC,0.153
CCTTCGAA,0.125
ACTCTAAC,-0.2
ATAAGGGC,-0.0858
GAAATGGA,-0.0949
CGTTGAGA,-0.0856
ACGTTCTA,-0.152
ATTCCCAG,-0.0242
CGAAGTAA,0.0697
TACAGGTA,-0.112
CATTTGTA,0.111
CGGTCCCA,0.118
CTCATGTA,0.0358
ACGCTAAT,-0.16
AAAATAGG,0.00607
GATTGCCA,0.101
CGCTTCTA,-0.0245
AACGTCGG,-0.0855
ATCATCCC,-0.00915
AATGTAAT,0.015
CACCTAGA,-0.134
GCATTCTA,0.0911
CCAACAAC,0.0142

# Study 3 — method: universal PBM; form: double-stranded DNA, one strand shown; medium: in vitro; tested at: 600 nM; direction: higher = stronger binding
# Target: Sal-like protein 4, full length isoform A (SALL4, Homo sapiens, UniProt Q9UJQ4, residues 1-1053)
# Sequence of UniProt Q9UJQ4 (whole entry, looked up): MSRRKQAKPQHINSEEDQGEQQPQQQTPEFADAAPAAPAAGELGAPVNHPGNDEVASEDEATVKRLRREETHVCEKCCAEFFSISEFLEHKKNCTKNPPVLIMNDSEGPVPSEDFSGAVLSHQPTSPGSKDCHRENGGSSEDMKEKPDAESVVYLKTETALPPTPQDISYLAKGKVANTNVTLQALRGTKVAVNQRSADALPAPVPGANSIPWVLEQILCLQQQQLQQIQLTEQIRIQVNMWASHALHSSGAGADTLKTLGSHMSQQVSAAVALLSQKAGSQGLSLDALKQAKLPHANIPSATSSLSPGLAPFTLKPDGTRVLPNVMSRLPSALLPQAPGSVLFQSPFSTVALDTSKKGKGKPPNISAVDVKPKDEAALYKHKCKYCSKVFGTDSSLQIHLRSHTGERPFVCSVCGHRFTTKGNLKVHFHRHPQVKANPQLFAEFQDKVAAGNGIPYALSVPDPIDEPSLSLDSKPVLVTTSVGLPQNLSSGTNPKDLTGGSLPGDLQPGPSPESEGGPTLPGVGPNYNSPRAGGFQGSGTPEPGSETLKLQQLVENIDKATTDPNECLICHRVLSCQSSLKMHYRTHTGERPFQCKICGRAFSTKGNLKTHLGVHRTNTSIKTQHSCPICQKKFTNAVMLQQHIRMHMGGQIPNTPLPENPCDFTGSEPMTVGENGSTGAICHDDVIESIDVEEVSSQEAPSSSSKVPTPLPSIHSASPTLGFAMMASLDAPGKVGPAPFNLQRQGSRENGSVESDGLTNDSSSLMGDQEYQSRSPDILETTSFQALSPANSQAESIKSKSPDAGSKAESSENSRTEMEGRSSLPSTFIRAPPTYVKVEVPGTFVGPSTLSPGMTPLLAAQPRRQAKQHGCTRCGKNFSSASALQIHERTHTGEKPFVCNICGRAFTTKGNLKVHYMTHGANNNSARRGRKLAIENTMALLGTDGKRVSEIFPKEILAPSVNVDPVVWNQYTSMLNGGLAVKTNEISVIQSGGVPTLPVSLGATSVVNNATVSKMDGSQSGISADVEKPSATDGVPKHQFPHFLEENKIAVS
# Setting: 8-mer, flanks averaged, mean of replicates
Strand,E-score
GCGAGAAA,0.0326
CTTGAACC,0.062
ACTAACGA,0.0994
CTATATTC,0.282
ACTGTACT,-0.0117
GCCTAGCA,-0.139
ACTCTTTA,0.103
ATGTCCTC,0.144
ATTGAGCG,-0.033
GCGCAATA,0.136
GCCTTTAA,0.124
GAATGGGC,-0.166
CCGGACAC,-0.28
CTAGAGAC,-0.167
ATGGAAGC,-0.0183
CAGGGCTC,-0.299
ATATCTTC,0.311
AGAAGGTG,0.0973
ATGAGCAA,0.159
AGGACATG,-0.0306
ACAGATTC,0.172
AGGTTTGC,-0.0503
AGACCGAG,-0.213

# Study 4 — method: DHFR PCA, dose-response; medium: yeast; added: (+)-ABA, dose series; direction: lower = more sensitive
# Target: ABI1, truncated, D143A, DHFR fusion (Arabidopsis thaliana, UniProt P49597)
# Setting: Hill fit, not affinity, not high confidence
# Starting sequence: PYL1, truncated, DHFR fusion (Arabidopsis thaliana, UniProt Q8VZS8); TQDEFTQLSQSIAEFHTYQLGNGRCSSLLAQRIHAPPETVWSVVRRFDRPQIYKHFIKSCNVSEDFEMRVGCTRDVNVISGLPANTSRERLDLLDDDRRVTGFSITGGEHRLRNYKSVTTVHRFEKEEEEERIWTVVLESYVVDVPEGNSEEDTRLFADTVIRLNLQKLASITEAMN
Substitution,ABA EC50
L82K,0.543 µM
H16S,585 µM
H16C,617 µM
I57D,0.951 µM
V137N,1.29 µM
I105K,18.4 µM
I33K,473 µM
T120I,1850 µM
Y115S,4.38 µM
I162Q,901 µM
S87M,0.482 µM
N165R,7.05 µM
K168N,0.618 µM
K54V,10.4 µM
H16P,141 µM
Q51C,55.2 µM

# Study 5 — method: protein-binding microarray; form: double-stranded DNA, one strand shown; medium: in vitro; tested at: 250 nM; setting: 60-bp whole probe; added: salmon DNA 0.4 mg/ml; baseline: random background probes; direction: higher = stronger binding; constant ends, left off below: GCCTAGCAC … GTCTTGATTCGCTTGACGCTGCTG
# Target: Interferon regulatory factor 7, full length, phosphomimetic (IRF7, Homo sapiens, UniProt Q92985, residues 1-503, S101K/S471D/S472D/S475D/S476D/S477D/S483D/S484D/S487D)
# Construct (chain): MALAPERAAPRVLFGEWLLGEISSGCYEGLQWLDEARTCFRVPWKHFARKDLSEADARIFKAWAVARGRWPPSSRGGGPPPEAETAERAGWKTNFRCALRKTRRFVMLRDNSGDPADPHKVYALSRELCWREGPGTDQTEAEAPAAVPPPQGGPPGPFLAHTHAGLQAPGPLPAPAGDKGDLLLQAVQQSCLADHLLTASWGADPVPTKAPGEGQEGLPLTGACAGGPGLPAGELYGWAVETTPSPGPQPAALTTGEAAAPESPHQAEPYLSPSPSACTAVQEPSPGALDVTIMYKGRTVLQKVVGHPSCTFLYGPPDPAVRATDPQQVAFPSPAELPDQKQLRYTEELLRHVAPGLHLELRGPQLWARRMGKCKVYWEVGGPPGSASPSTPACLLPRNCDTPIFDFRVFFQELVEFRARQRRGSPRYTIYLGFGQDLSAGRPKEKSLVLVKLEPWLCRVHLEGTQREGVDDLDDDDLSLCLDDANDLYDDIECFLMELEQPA
Strand,log fluorescence [z-score]
GACGGTATACTTTTCCTGACGTGCTAG,0.279
TTAGGTTTCGGGACTCGGTTAGTGCTA,5.86
TCACCTTCTACTCTCCTACTGTGCTAG,0.823
TTAGATTCCAGATTCGATTAGTGCTAG,4.9
TCCAATTCTCTTTTCACTTTGTGCTAG,2.13
TCCATTTTCTAAATTCCCTAGTGCTAG,1.69
GACCATCTCATATAAATAGGCGTGCTA,0.348
TTAGGTGTCGGTCTCGGTTAGTGCTAG,0.836
TCAGGTCTCGGACTGGGTTAGTGCTAG,0.378
TTAGGTCTACTACTGCTTTAGTGCTAG,-0.154
ATATATATTATATATACACATGTGCTA,0.588
GACGGACAGCTTTTCCTGACGTGCTAG,-0.459
TTAGGACTGGGACTGGGTTTGTGCTAG,-0.184
TCAGATGTGTATATGACACTGTGCTAG,-0.489
TTAGGTCTCCTTTTCCCTTAGTGCTAG,1.78
GACGGTTCCGGCTTCGGGACGTGCTAG,0.918
GACGGTTTCGGTTTGGGGACGTGCTAG,14.2
GACGGACTGCTTTTCCTGCCGTGCTAG,-0.133
GACGAACTGGAGACTGGAGACGTGCTA,-0.45
TCCTGTGTCTTAAATAGGGCAGTGCTA,-0.0154
CTAGGTATCGGACTGGGTTAGTGCTAG,0.739
TTAGATTTCAGACTTGATTAGTGCTAG,0.261
TGGCTTTCCTTTATGTCCTGGTGCTAG,0.702

# Study 6 — target: CCNE2, cyclin fold, Cln2 fusion (human); method: yeast growth competition, sequencing; medium: yeast; setting: strong parent motif; baseline: not given; direction: higher = stronger binding
# Starting sequence: TICRR docking peptide (human); TKVRRNLFNQELL; partner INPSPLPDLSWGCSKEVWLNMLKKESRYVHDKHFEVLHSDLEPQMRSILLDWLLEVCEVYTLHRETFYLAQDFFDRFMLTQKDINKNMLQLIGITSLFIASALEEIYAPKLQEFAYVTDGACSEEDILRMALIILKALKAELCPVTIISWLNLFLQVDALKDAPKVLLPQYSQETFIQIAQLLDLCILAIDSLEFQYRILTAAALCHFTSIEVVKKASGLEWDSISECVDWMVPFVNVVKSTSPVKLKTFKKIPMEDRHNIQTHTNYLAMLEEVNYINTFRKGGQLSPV
Substitution,normalised enrichment score
R5A,0.517
R5K F8L,0.349
L7A,-0.186
Q10A,1.07
R5A L7A,0.0409
V3A,-0.0669
L12A,0.635
L13A,2.06
R5K,0.944
N9A,1.35

# For quick reference, copied from above (study 6):
Substitution,normalised enrichment score
L7A,-0.186
R5K,0.944
N9A,1.35
L12A,0.635
R5A,0.517
Q10A,1.07
L13A,2.06
R5K F8L,0.349
R5A L7A,0.0409
V3A,-0.0669
